Results pooled from the literature.
Each line is one published result; not all experiments were run side by side. ± marks the error that the study gave.
CHRM1: Muscarinic acetylcholine receptor M1 (CHRM1, Homo sapiens, UniProt P11229)
UniProt P11229, sequence (whole entry, looked up): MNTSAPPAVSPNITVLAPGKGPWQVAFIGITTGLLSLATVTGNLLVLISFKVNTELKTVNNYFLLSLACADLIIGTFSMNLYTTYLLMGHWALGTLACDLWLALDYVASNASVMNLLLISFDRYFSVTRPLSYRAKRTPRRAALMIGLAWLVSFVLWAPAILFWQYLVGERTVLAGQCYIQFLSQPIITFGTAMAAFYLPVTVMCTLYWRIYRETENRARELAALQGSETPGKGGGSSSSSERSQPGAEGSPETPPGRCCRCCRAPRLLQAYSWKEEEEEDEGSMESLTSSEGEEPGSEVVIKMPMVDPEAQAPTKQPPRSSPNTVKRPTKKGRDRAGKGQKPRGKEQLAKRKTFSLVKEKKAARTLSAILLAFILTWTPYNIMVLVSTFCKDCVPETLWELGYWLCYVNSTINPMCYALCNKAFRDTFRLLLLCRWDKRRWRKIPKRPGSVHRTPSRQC
CASP3: Caspase-3 (CASP3, Homo sapiens, UniProt P42574)
UniProt P42574, sequence (whole entry, looked up): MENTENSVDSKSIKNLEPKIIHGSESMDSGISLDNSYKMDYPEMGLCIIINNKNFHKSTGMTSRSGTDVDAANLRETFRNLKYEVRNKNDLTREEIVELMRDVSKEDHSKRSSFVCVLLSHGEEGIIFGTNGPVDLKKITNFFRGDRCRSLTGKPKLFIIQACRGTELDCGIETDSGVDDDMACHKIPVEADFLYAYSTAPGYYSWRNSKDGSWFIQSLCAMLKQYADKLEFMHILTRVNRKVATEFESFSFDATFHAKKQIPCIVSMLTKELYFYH
UniProt Q12908, sequence (whole entry, looked up): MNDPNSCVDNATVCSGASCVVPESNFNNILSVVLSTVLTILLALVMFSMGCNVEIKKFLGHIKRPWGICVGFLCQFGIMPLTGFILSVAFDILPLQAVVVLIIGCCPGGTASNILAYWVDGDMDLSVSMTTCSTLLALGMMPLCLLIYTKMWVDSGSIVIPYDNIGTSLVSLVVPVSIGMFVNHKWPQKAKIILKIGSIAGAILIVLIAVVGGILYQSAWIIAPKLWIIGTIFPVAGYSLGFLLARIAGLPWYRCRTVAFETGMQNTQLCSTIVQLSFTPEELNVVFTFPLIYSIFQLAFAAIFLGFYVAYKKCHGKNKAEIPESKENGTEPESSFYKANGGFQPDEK
UniProt P0DMS8, sequence (whole entry, looked up): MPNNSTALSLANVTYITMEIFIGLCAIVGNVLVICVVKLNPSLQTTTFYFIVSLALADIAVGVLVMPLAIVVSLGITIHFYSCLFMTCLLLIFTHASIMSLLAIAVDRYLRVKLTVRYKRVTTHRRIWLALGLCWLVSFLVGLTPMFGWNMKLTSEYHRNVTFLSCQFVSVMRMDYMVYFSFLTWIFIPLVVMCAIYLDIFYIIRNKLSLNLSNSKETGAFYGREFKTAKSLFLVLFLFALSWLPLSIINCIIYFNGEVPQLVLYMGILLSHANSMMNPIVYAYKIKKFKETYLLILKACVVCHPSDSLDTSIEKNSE
UniProt P48039, sequence (whole entry, looked up): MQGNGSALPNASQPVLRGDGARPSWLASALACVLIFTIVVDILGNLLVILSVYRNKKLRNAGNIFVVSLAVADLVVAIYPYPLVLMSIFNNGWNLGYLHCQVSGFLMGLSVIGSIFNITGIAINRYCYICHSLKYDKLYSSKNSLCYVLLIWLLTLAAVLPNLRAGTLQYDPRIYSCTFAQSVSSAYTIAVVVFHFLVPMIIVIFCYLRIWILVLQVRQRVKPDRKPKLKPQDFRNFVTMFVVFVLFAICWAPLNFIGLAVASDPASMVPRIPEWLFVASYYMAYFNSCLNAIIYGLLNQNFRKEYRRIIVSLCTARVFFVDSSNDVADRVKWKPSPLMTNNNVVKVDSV
UniProt P20309, sequence (whole entry, looked up): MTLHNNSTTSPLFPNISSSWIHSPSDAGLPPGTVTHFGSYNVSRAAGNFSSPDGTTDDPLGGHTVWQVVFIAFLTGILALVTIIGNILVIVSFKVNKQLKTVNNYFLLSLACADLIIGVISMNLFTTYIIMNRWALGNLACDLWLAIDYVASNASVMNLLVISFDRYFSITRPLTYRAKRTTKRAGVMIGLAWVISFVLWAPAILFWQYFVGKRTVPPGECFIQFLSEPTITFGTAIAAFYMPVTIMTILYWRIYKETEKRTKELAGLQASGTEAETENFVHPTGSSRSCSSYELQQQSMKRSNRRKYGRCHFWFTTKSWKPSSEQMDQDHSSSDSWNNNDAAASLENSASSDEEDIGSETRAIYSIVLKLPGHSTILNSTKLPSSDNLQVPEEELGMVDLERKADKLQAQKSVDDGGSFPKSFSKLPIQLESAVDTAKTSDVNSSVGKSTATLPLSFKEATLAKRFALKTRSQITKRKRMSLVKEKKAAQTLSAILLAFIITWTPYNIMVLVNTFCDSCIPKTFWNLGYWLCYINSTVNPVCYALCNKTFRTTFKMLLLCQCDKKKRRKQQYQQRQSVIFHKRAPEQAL
UniProt Q9H227, sequence (whole entry, looked up): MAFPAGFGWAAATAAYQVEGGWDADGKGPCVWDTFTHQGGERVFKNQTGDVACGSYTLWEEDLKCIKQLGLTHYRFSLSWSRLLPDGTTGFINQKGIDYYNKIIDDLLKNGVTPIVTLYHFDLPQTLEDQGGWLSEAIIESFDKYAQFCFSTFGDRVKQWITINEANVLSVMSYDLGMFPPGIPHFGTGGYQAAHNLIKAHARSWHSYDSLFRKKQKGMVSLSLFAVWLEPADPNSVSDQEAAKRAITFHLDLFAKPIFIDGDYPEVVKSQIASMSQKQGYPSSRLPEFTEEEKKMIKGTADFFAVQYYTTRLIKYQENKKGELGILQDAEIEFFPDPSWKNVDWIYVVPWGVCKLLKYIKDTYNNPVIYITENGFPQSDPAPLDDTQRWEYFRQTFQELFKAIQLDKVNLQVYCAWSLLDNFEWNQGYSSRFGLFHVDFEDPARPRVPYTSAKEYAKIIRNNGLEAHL
UniProt P61169, sequence (whole entry, looked up): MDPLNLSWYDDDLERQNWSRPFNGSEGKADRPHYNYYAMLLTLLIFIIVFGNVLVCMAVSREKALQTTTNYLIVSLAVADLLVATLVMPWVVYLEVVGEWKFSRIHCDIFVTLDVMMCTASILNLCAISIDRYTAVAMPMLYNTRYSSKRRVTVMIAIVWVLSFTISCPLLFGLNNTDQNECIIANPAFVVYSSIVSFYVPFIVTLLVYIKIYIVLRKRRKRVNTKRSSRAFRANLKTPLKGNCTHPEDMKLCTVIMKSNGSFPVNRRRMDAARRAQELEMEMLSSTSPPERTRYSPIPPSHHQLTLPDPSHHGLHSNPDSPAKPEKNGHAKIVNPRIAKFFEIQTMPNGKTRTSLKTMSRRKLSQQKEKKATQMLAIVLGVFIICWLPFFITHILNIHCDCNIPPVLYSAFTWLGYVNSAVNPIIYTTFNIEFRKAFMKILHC

| SMILES | target | assay | system | conditions | Ki [nM] |
| --- | --- | --- | --- | --- | --- |
| OC[C@H]1[C@@H](O)[C@H](O)[C@@H](O)CN1CCCCCOCc1ccc(-c2ccccc2)cc1 | Cytosolic beta-glucosidase (GBA3, Homo sapiens, UniProt Q9H227) | enzyme activity, inhibitor |  |  | 27800 |
| O=C1Nc2ccccc2N(C(=O)CN2CCC(CCCCN3CCC(N4CCC(n5c(=O)[nH]c6ccccc65)CC4)CC3)CC2)c2ccccc21 | CHRM1 | ligand displacement, radioligand |  |  | 2.69 |
| Clc1cc(CN2CCCCC2)ccc1OCCCN1CCN(c2cccc3sccc23)CC1 | D(2) dopamine receptor (Drd2, Rattus norvegicus, UniProt P61169) | cell-free assay, radioligand |  |  | 125 |
| COc1cc(I)c(Cc2cc(OC)c(OC)cc2CC(=O)OC(C)(C)C)cc1OC | Melatonin receptor type 1A (MTNR1A, Homo sapiens, UniProt P48039) | ligand displacement, radioligand |  | cell membranes | 537 |
| C[C@H](CCC(=O)OCc1ccccc1)[C@H]1CC[C@H]2[C@@H]3[C@H](O)C[C@H]4C[C@H](OC(=O)CCC(=O)O)CC[C@]4(C)[C@H]3CC[C@]12C | Ileal sodium/bile acid cotransporter (SLC10A2, Homo sapiens, UniProt Q12908) | taurocholate uptake, inhibitor | MDCK expressing SLC10A2 |  | < 25000 |
| CCC(=O)NC1CN(CCCCC2CCN(CC(=O)N3c4ccccc4NC(=O)c4ccccc43)CC2)CCN(CC(=O)N2CCC(N3CCC(n4c(=O)[nH]c5ccccc54)CC3)CC2)C1 (stereo not drawn) | CHRM1 | ligand displacement, radioligand |  |  | 16.6 |
| CC(Cl)C(=O)Nc1ccc2nc(NCCCCCN(C)C)nc(NCCCCCCN(C)C)c2c1 (stereo not drawn) | Histone-lysine N-methyltransferase SETDB1, triple Tudor domain (SETDB1, Homo sapiens, UniProt Q15047) |  |  |  | 750 ± 350 |
| CN1CCC=C(c2nsnc2OCCCCCN2CCN(CCCCCOc3nsnc3C3=CCCN(C)C3)CC2)C1 | Muscarinic acetylcholine receptor M3 (CHRM3, Homo sapiens, UniProt P20309) | ligand displacement, radioligand |  |  | 50.1 |
| CC[C@H](C)[C@H](NC(C)=O)C(=O)N[C@H](C(=O)NCC(=O)N[C@@H](CCCCN)C(=O)N[C@H](C=O)CC(=O)O)[C@@H](C)O | CASP3 | enzyme activity, inhibitor, fluorescence |  | pH 7 | 1780 |
| O=c1c2c(O)cc(O)cc2oc2oc3cc(O)ccc3c12 | alpha-glucosidase | inhibitor, Dixon plot |  |  | 45000 |
| CN1CCC=C(c2nsnc2OCCCN2CCN(CCCCC3CCN(CC(=O)N4c5ccccc5NC(=O)c5ccccc54)CC3)CC2)C1 | CHRM1 | ligand displacement, radioligand |  |  | 1.45 |
| CCCCOc1ccc(C(=O)OCCN2CC=CCC2)cc1 | CHRM1 | ligand displacement, radioligand |  | cell membranes | 6460 |
| O=c1[nH]cnc2c(CN[C@H](CO)CC(F)P(=O)(O)O)c[nH]c12 (stereo partly drawn) | Hypoxanthine-guanine phosphoribosyltransferase (Trypanosoma cruzi, UniProt Q4DGA3) |  |  |  | 26 ± 2 |
| OC[C@H]1O[C@@H](n2cnc3c(Nc4cccc(Br)c4)ncnc32)[C@H](O)[C@@H]1O | Adenosine receptor A3 (ADORA3, Homo sapiens, UniProt P0DMS8) | ligand displacement, radioligand |  | cell membranes | 78 |
| CC(=O)N[C@H](C(=O)N[C@H](C(=O)N[C@@H](CCCCN)C(=O)N[C@H](C=O)CC(=O)O)C(C)C)[C@@H](C)O | CASP3 | enzyme activity, inhibitor, fluorescence |  | pH 7 | 11200 |

A few entries again:
| SMILES | target | assay | system | conditions | Ki [nM] |
| --- | --- | --- | --- | --- | --- |
| CCC(=O)NC1CN(CCCCC2CCN(CC(=O)N3c4ccccc4NC(=O)c4ccccc43)CC2)CCN(CC(=O)N2CCC(N3CCC(n4c(=O)[nH]c5ccccc54)CC3)CC2)C1 (stereo not drawn) | CHRM1 | ligand displacement, radioligand |  |  | 16.6 |
| CCCCOc1ccc(C(=O)OCCN2CC=CCC2)cc1 | CHRM1 | ligand displacement, radioligand |  | cell membranes | 6460 |
